Assay results collected from several papers.
Protocols differ between the studies behind these lines. ± marks the error that the study gave.

CCCS(=O)(=O)Nc1ccc(F)c(C(=O)c2c[nH]c3ncc(-c4ccc(Cl)cc4)cc23)c1F
Vmax of saturable absorption (one-compartment model; tumour-bearing xenograft mouse, plasma; oral): 3500 kg/µg/h

C=CC(=O)NC1CCN(c2ncc3ncnc(Nc4ccc(Oc5ccc6c(c5)ncn6C)c(C)c4)c3n2)CC1
AUC0-∞ ratio (human, male, plasma; oral, 30 mg, adjusted geometric means; relative to: fed over fasted): 74.9%

Cc1nc2ccc(OCc3ccc(C(F)(F)F)cc3)cc2[nH]1
tissue concentration (Balb/c mouse, male, liver; oral, 10 mg/kg, 4 h): 5250 ± 717 ng/g

C=CC(=O)NC1CCN(c2ncc3ncnc(Nc4ccc(Oc5ccc6c(c5)ncn6C)c(C)c4)c3n2)CC1
blood-to-plasma ratio (refers to: total radioactivity; healthy male human, whole blood and plasma; oral, 60 mg, 120 h, geometric mean): 2.91

C[C@@H]1NC(=O)[C@H](CCCCNC(=O)CO/N=C/C(=O)NCCCC[C@@H]2NC(=O)[C@@H](Cc3ccccc3)NC(=O)[C@H](CC(=O)O)NC(=O)CNC(=O)[C@H](CCCNC(=N)N)NC2=O)NC(=O)CNC(=O)[C@@H]2CCCN2C(=O)[C@H](CCCCNC(=O)CO/N=C/C(=O)NCCCC[C@@H]2NC(=O)[C@@H](Cc3ccccc3)NC(=O)[C@H](CC(=O)O)NC(=O)CNC(=O)[C@H](CCCNC(=N)N)NC2=O)NC(=O)[C@H](CCCCNC(=O)CN2CCCNCCNCCCNCC2)NC(=O)[C@H](CCCCNC(=O)CO/N=C/C(=O)NCCCC[C@@H]2NC(=O)[C@@H](Cc3ccccc3)NC(=O)[C@H](CC(=O)O)NC(=O)CNC(=O)[C@H](CCCNC(=N)N)NC2=O)NC(=O)CNC(=O)[C@@H]2CCCN2C(=O)[C@H](CCCCNC(=O)CO/N=C/C(=O)NCCCC[C@@H]2NC(=O)[C@@H](Cc3ccccc3)NC(=O)[C@H](CC(=O)O)NC(=O)CNC(=O)[C@H](CCCNC(=N)N)NC2=O)NC1=O [copper-64 labelled]
intact fraction (RP-HPLC; radiolabelling buffer; 24 h, 37 °C): 100%

C[C@@H](O)[C@H](NC(=O)c1ccc(-c2ccc(Br)cc2)cc1)C(=O)NO
logD (octanol/buffer; pH 7.4): 2.77

C=CCn1c(=O)c2cnc(Nc3ccc(N4CCN(C)CC4)cc3)nc2n1-c1ccc2c(n1)[C@@](O)(CC)CC2
AUC(0-24) (female NOD/SCID mouse OVCAR-3 xenograft, plasma; oral, 80 mg/kg once daily, :2): 29100 ng·h/mL

COCCOc1cnc2ccn([C@H](C)c3nnc4c(F)cc(-c5cnn(C)c5)cn34)c(=O)c2c1
Ctrough (patients, plasma; oral, 400 mg once daily, day 1 24 h postdose): 220 ng/mL

O=C(Nc1nc2cccc(-c3ccc(CN4CCS(=O)(=O)CC4)cc3)n2n1)C1CC1
treatment-emergent adverse events (refers to: pain in extremity; human rheumatoid arthritis patients; oral, 150 mg once daily, 4 weeks, regardless of relatedness): 0%

O=C(O)CN1CCCN2CCN(CC(=O)O)CCCN(CC1)Cc1cccc(n1)C2
intact complex (64Cu complex in rat plasma; 12 h, 37 °C): 98%

CC(C)(C)c1ccc([C@@H]2COC[C@@H](c3ccc(Cl)cc3)N2)cc1
logD (shake-flask, 1-octanol/buffer; pH 7.4): > 4.5

O=C(O)CC(O)(CC(=O)O)C(=O)O
lowest mean body weight (Wistar rat; 1000 mg/kg, week four): 109 g

NC/C(=C\F)COc1cccc(Cn2c(=S)[nH]c(=O)c3[nH]cnc32)c1
tissue concentration (C57BL/6J mice, plasma; oral, 15 mg/kg single, 6 h): 50 ng/mL

N#Cc1cc([C@@H]2COC[C@H](c3cc(Cl)cc(Cl)c3)N2)ccc1F
logD (shake-flask, 1-octanol/buffer; pH 7.4): > 4.1

Cc1ccc(Sc2ccccc2N2CCNCC2)c(C)c1
participants with TEAE (refers to: metrorrhagia; healthy adult men; oral, 5 mg daily, 12 days): 0%

CCOc1c([C@H](C)n2nc(C)c3c(N)ncnc32)cc(Cl)c(F)c1[C@@H]1CNC(=O)C1
highest LSM ΔQTcF (previously treated B-cell malignancy patients; oral, 5 to 45 mg once daily, across doses and timepoints): 4.75 ms

CC(C)(C(=O)N1CCOc2c(C#N)cncc2C1)C(F)F
subjects with adverse event (refers to: Ecchymosis; human; oral, 20 mg once daily, 14 days, multiple ascending dose): 0%

CC(C)C[C@H](NC(=O)[C@H]1O[C@@H]1C(=O)O)C(=O)NCCCCN=C(N)N
cysteine adduct formation (MES buffer; 100 µM, 23 h, pH 5.5, 37 °C, added: cysteine 10 mM): < 1%

CN(CCC#N)C1CCN(C(=O)Cn2cc(NC(=O)c3cnn4cccnc34)c(-c3cc(Cl)ccc3OC(F)F)n2)CC1
LDL cholesterol change (human, single ascending dose; 0.15 mg, day 4; relative to: baseline): -12.9 mg/dL

O=C1NC(=O)C(c2ccccc2)(c2ccccc2)N1
trough level (human, serum; 4 mg/kg every 8 h): 15 to 20 µg/mL

O=Cc1cc2c(cc1F)C(=O)N(C1CCC(=O)NC1=O)C2 (stereo not shown)
plasma concentration (CD-1 mice; intravenous, 1 mg/kg, 4 h): not detected

COc1ncc(-c2nc3c(n2C(C)C)[C@H](c2ccc(Cl)cc2)N(c2cc(Cl)cn(C)c2=O)C3=O)c(OC)n1
median Tmax (human patients, plasma; oral, 350 mg, high-dose arm, cycle 1 day 1): 3 h

CCOC(=O)N1C[C@@H](c2ccc(C(C)(C)C)cc2)N[C@@H](c2nc3ccccc3n2C)C1
logD (shake-flask, 1-octanol/buffer; pH 7.4): > 4.7

COc1ccc2c(c1)CN(C(=O)CCN1CCC(Cc3ccccc3)CC1)CC[S@@+]2[O-]
fu (human plasma; 10000 ng/mL): 0.349

O=c1ccc2ccc(O)cc2o1
CLint scaled (metabolic stability; mouse liver S9; 2 µM, pH 7.4): 2120 mL/min/kg

C=CC(=O)Nc1cc(Nc2nccc(-c3cn(C)c4ccccc34)n2)c(OC)cc1N(C)CCN(C)C
recovery (storage stability; human dried blood spot; 10 d, -80 °C, LLOQ level): 82.9%

C[C@H]1CN(C(=O)CC#N)[C@]12CCN(c1ncnc3[nH]ccc13)C2
subjects with Paraesthesia (healthy human; oral, 6 mg single): 0%

Cc1cccc([C@H]2N[C@@H](c3ccc(-c4ccccn4)cc3)CO[C@@H]2C)c1
logD (shake-flask, 1-octanol/buffer; pH 7.4): > 4.7

c1ccc2cc3ccccc3cc2c1
log K(PDMS-water) (fresh water; 12 (unit not given), 20 °C): 3.87 ± 0.04

O=C(O)CCC(=O)O.[2H]C([2H])([2H])Oc1cc(C)c2[nH]ccc2c1CN1CC[C@@H](C2CC2)C[C@H]1c1ccc(C(=O)O)cc1
TEAE sinus bradycardia (healthy Chinese subjects; 400 mg, single ascending dose): 0%

CCCCCN1C[C@H](O)[C@@H](O)[C@H](O)[C@@H]1CO
geometric mean brain concentration (LC-MS/MS; Hexb-/- mice, female, brain; 30 mg/kg/day): 40 ng/g

C=CC(=O)N(C)CCOc1c(N)ncnc1-c1cc(F)cc(NC(=O)c2ccc(C3CC3)cc2F)c1C
Cmax (human; oral, 5 mg single dose): 5.86 ng/mL

N#Cc1ccc2c(c1)[C@H]1CCCN(C(=O)c3ccc4[nH]cnc4c3)[C@H]1C2
minimum ACTH level (human; 360 mg, day 15): 5.1 pmol/L

O=C(COc1ccc(Cl)cc1)NC12CC(c3nnc([C@H]4C[C@@H](OC(F)(F)F)C4)o3)(C1)C2
adverse event incidence (refers to: Fatigue; human; oral, dose not given, 14 days): 26.5%

CN(C(=O)n1cnc(-c2ccc[n+]([O-])c2)c1)[C@H]1CC[C@H](O)CC1
concentration (Wistar rat, pons; oral, 10 mg/kg of BIA 10-2474, 1 h, single dose): 10.6 ± 1.2 ng/g

Cc1ccc([C@@H]2O[C@H](CO)[C@@H](O)[C@H](O)[C@H]2O)cc1Cc1ccc(-c2ccc(F)cc2)s1
urinary magnesium excretion change (Japanese type 2 diabetes patients; 200 mg, day 5, 24 h urine collection; relative to: baseline): -6.77 mg

O=C(Cc1ccc(OC(F)(F)F)cc1)Nc1cc(C2CC2)[nH]n1
logD (octanol/buffer; 67 µM, pH 7.4): 3.94

O=C1CC[C@H](N2Cc3cc(N4CCN(CC5CCN(c6ccc([C@@H]7c8ccc(O)cc8CC[C@@H]7c7ccccc7)cc6)CC5)CC4)ccc3C2=O)C(=O)N1
hepatic clearance, fu-corrected (Sprague-Dawley rat): 19.8 mL/min/kg

O=C(/C=C/CCc1ccc(O)cc1)/C=C/c1ccc(O)cc1
body weight (nude mouse MCF7 xenograft; 10 mg/kg, day 6): 19.6 ± 1.55 g

COC(=O)c1cccc(-c2cccc(Nc3nccc(NC4CCCCC4)n3)c2)c1
efflux ratio (MDCKII-WT cells; 10 µM, pH 7.4; relative to: Papp B-A over A-B): 8.3

COc1c(N2C[C@@H]3CCCN[C@@H]3C2)c(F)cc2c(=O)c(C(=O)O)cn(C3CC3)c12
subjects with discoloured faeces (healthy volunteers; 400 mg): 3%

CCO[C@H]1CCN(Cc2c(OC)cc(C)c3[nH]ccc23)[C@H](c2ccc(C(=O)O)cc2)C1
incidence of haematuria (PNH patients, active haemolysis; oral, 25 mg, 4 weeks, treatment): 0%

CCN1CCN(Cc2ccc(Nc3ncc(F)c(-c4cc(F)c5nc6n(c5c4)[C@H](C)CCC6)n3)nc2)CC1
Tmax (human, Phase Ib patients, plasma; 400 mg, single dose, median, added: fulvestrant): 9.97 h

CCc1cc(C(=O)NC)c2nccc(N3CCc4c(cc(Cn5ccnc5)cc4-c4cn(C)nc4C(F)(F)F)C3=O)c2c1
body weight change (Sprague Dawley rat; oral, 50 mg/kg once daily, day 5, 7-day toxicology study; relative to: day 1): 13.4%

COc1cc2nccc(Oc3ccc(NC(=O)c4cc5c(n(-c6ccccc6)c4=O)CCCC5=O)nc3)c2cc1OC
patients with sinus tachycardia (human, relapsed/refractory AML; oral, 3 mg once daily, grade ≥3, any causality): 10%

Cc1ccc(O)c(-n2nc3ccccc3n2)c1
daily dermal uptake (human, both sexes; topical, dose not given, sunscreen, age 2-3 years, 95th percentile): 5160 ng/kg body weight/day

C[Si]1(C)O[Si](C)(C)O[Si](C)(C)O[Si](C)(C)O[Si](C)(C)O1
enthalpy of phase change (air/water; concentration not given): 29.6 kcal/mol

CCN1/C(=C/C(C)=O)Sc2ccc(F)cc21
systolic blood pressure (cynomolgus monkey; oral, 10 mg/kg, 4 h post-dose): 120 ± 8 mmHg

C[C@@H](O)CCOC(=O)C[C@@H](C)O
diastolic blood pressure (human; oral drink, dose not given, 90 min post dose, mean): 64 mmHg

C[C@@H](NC(=O)N1C(=O)[C@H](Cc2ccnc(N)c2)[C@H]1C(=O)O)C1CCCCC1
CL (UPLC-MS/MS; healthy adult Chinese volunteers, plasma; continuous intravenous infusion, 1.0 mg/kg/h, day 6 of 5-day infusion, mean): 5.18 mL/min/kg

Cc1cc(-c2nccc3c2ccn3CC(=O)Nc2ccc(-c3cnccn3)cn2)ccn1
subjects with suture rupture (human; 20 mg once daily, multiple ascending dose): 0%

Cc1nc(C)c(-c2ccnc(N)n2)s1
logD (octanol/buffer; 67 µM, pH 7.4): 1.67

C[C@@H]1CN(c2cccc(-c3ccc4ncnc(Nc5ncco5)c4c3)c2)C[C@H](C)O1
CLint (human liver microsomes): 29 µL/min/mg

COc1ccc2c(=O)n(C)c(-c3ccccc3)nc2c1
tissue/plasma ratio (Sprague-Dawley rat, male, kidney; oral, 30 mg/kg, 4 h; relative to: kidney over plasma): 6.88

[O]=[Co].[O]=[Co][O][Co]=[O]
cobalt concentration (rat, male, urine, 24-h collection; oral gavage, single, 300 mg/kg (220 mg Co/kg), day 3, vehicle 0.5% HPMC): 307 µg/L

For quick reference, copied from above:
Cc1cc(-c2nccc3c2ccn3CC(=O)Nc2ccc(-c3cnccn3)cn2)ccn1
subjects with suture rupture (human; 20 mg once daily, multiple ascending dose): 0%

Cc1nc(C)c(-c2ccnc(N)n2)s1
logD (octanol/buffer; 67 µM, pH 7.4): 1.67

C[C@@H]1CN(c2cccc(-c3ccc4ncnc(Nc5ncco5)c4c3)c2)C[C@H](C)O1
CLint (human liver microsomes): 29 µL/min/mg

COc1ccc2c(=O)n(C)c(-c3ccccc3)nc2c1
tissue/plasma ratio (Sprague-Dawley rat, male, kidney; oral, 30 mg/kg, 4 h; relative to: kidney over plasma): 6.88

[O]=[Co].[O]=[Co][O][Co]=[O]
cobalt concentration (rat, male, urine, 24-h collection; oral gavage, single, 300 mg/kg (220 mg Co/kg), day 3, vehicle 0.5% HPMC): 307 µg/L
